Experimental data pooled from the literature.
Each line is one published result; not all experiments were run side by side. “And” joins repeats or separate records; there may be more than shown. ± marks the error that the study gave.
pbp2a: Penicillin-binding protein 2a (pbp2a, Streptococcus pneumoniae, UniProt Q8DNB6)
UniProt P27361, sequence (whole entry, looked up): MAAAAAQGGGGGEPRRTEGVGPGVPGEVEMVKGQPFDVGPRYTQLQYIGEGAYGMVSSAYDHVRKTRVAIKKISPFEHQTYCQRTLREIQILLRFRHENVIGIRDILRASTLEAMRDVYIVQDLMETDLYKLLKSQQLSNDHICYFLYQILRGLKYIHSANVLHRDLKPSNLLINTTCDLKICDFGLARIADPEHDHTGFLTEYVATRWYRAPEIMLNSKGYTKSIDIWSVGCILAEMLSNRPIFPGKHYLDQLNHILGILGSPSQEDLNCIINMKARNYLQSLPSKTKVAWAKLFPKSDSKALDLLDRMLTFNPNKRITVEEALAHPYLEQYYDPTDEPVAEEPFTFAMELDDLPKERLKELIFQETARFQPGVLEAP
UniProt Q8WZ82, sequence (whole entry, looked up): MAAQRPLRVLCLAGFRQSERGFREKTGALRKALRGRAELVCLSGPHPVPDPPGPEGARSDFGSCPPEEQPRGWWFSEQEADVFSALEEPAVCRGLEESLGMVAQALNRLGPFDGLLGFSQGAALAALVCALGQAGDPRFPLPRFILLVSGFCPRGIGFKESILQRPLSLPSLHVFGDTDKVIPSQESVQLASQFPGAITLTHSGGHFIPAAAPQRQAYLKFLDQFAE
UniProt Q8DNB6, sequence (whole entry, looked up): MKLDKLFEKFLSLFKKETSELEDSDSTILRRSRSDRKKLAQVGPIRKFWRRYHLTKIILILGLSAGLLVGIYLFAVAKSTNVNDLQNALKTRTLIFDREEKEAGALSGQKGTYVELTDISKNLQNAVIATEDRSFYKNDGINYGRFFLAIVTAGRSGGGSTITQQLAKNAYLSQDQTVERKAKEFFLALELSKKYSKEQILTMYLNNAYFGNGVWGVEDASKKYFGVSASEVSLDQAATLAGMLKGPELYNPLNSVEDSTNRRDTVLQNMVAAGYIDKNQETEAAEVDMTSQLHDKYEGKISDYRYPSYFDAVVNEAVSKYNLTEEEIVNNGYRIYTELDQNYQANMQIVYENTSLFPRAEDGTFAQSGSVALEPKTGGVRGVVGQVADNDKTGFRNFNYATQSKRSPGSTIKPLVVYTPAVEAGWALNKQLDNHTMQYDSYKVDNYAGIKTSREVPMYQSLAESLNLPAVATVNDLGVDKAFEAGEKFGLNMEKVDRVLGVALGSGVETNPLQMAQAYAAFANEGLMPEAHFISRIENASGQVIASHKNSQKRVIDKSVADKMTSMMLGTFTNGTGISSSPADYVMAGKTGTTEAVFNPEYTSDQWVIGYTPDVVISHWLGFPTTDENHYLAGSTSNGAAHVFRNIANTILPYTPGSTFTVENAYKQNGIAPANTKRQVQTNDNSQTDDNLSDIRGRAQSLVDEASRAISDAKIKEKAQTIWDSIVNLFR
UniProt P00942, sequence (whole entry, unmodified, looked up): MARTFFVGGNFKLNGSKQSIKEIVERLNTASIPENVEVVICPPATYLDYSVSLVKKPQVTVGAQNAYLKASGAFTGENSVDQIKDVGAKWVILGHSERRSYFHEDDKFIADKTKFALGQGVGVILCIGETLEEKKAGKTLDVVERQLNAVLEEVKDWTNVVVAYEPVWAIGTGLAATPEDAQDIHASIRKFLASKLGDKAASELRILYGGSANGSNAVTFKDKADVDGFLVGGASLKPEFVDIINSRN
UniProt Q16584, sequence (whole entry, looked up): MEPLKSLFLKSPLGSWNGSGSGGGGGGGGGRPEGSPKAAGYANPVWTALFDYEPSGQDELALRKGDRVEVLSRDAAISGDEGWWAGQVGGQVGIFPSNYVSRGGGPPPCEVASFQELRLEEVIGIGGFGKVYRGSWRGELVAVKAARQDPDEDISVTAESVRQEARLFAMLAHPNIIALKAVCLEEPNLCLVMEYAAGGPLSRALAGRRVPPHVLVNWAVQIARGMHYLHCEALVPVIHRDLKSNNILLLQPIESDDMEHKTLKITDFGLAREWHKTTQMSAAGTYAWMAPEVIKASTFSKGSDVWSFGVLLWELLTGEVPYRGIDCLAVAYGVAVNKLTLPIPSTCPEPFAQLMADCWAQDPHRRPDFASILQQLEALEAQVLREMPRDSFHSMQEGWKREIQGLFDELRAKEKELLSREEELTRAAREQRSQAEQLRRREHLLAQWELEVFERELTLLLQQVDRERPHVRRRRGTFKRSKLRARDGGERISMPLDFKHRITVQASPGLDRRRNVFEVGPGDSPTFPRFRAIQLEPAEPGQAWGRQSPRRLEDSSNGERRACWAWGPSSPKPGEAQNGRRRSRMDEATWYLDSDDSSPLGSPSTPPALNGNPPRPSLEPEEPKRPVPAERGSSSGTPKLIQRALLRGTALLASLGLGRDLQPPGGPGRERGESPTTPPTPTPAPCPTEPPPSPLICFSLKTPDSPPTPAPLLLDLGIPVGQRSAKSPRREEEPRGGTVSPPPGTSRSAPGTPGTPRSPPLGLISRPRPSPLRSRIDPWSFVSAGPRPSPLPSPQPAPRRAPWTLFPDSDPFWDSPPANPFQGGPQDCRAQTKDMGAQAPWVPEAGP
UniProt Q8N6U8, sequence (whole entry, looked up): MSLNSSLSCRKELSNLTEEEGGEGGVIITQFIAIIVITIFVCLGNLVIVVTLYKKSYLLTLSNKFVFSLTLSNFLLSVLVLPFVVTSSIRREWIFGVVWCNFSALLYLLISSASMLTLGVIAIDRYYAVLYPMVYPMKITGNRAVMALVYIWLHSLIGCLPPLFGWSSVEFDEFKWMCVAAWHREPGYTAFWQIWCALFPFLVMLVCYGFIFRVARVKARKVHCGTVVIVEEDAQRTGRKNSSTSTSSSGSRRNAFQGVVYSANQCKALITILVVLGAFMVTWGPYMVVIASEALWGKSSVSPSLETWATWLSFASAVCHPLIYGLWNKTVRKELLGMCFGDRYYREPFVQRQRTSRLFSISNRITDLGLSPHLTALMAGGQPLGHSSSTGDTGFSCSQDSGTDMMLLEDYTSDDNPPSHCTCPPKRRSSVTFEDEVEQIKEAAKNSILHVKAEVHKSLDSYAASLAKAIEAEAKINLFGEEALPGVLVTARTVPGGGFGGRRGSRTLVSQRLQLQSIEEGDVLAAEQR
UniProt P12763, sequence (whole entry, unmodified, looked up): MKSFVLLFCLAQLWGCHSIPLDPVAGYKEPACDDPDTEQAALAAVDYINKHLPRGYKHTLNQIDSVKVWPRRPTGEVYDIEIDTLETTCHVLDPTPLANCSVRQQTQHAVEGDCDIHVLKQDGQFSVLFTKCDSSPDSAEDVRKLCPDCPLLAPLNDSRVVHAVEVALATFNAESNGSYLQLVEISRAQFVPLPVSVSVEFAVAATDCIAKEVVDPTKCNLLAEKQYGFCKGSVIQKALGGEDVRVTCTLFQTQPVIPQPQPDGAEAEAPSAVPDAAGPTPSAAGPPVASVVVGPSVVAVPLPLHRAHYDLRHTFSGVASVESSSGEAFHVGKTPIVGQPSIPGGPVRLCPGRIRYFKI
UniProt Q13233, sequence (whole entry, looked up): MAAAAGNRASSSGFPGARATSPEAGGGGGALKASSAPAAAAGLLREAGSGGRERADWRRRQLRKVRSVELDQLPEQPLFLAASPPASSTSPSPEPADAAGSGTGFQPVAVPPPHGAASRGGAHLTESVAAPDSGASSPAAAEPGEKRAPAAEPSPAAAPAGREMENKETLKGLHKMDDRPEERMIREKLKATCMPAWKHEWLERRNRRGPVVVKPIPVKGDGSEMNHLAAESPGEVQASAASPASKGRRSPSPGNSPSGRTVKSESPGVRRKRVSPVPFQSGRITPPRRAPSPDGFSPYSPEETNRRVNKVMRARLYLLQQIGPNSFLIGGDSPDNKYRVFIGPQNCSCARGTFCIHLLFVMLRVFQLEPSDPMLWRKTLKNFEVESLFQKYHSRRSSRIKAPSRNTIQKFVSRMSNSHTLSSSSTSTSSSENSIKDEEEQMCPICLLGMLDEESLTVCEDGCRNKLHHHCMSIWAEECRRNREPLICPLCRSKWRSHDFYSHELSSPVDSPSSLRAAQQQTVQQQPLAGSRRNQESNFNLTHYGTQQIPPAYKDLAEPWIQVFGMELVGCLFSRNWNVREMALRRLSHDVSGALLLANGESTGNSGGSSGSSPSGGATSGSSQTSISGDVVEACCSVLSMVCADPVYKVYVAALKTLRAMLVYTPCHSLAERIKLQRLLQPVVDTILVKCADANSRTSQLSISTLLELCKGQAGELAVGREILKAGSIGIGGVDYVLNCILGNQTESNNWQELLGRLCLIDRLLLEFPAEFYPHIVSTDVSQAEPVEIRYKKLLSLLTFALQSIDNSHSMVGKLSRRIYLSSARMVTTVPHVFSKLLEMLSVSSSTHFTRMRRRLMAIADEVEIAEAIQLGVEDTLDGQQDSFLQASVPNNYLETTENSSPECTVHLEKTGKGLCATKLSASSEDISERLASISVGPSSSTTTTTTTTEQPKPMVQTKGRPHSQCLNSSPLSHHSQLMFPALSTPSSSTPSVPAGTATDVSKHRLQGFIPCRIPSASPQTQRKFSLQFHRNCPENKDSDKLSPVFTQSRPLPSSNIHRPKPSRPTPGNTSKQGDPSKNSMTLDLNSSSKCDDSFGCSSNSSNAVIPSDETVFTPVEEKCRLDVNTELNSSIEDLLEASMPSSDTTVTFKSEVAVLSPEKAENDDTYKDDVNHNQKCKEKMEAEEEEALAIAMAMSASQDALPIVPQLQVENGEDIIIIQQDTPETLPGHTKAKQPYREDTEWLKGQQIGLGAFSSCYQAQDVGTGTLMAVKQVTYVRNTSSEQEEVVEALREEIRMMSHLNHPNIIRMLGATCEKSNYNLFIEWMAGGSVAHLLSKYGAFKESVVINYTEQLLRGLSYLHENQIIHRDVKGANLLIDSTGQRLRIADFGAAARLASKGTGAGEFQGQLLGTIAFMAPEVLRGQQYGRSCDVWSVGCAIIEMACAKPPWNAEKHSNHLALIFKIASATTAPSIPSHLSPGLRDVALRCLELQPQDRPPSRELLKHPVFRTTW

O=C(O)Cc1c[nH]cn1  normalised MST signal (SLC6A6 (Homo sapiens, UniProt P31641, Y138A); binding, microscale thermophoresis; 30.5 nM, room temperature, added: 50 nM labelled protein; higher = more binding): 0.0615
Cc1onc(-c2c(Cl)cccc2Cl)c1C(=O)N[C@@H]1C(=O)N2[C@@H]1SC(C)(C)[C@@H]2C(=O)O  kinact/KI (pbp2a; inhibitor): 2000 ± 100 M⁻¹ s⁻¹
O=C(O)COP(=O)(O)O  Ki ratio (TPI1 (Saccharomyces cerevisiae, UniProt P00942, S211A); enzyme activity, competitive inhibitor, GPDH/NADH-coupled; pH 7.5, 25 °C, ionic strength 0.1 NaCl, added: glyceraldehyde 3-phosphate substrate; reference: mutant over wild type): 114
COC(=O)[C@@]1(O)C[C@H]2O[C@]1(C)n1c3ccccc3c3c4c(c5c6ccccc6n2c5c31)C(=O)NC4  kinase activity (MAPK3 (Homo sapiens, UniProt P27361); ADP-Glo; 10.5 nM, added: MBP substrate): 56.5% and 70.5% and 79.6%
COc1cc2c(Oc3ccc4[nH]c(C)cc4c3F)ccnc2cc1OCC1(N)CC1  grade 3 sinus arrhythmia (paediatric recurrent refractory sarcoma; 10 mg): 0%
CN(C(=O)n1cnc(-c2ccc[n+]([O-])c2)c1)C1CCCCC1  inhibition (AGTR2 (Homo sapiens, UniProt P50052); radioligand binding, inhibitor; 10 µM): -7%
CCCCCCCCCC(=O)CC(=O)Nc1ccccc1  Hill slope (qscR, DNA-bound (Pseudomonas aeruginosa, UniProt G3XD77); DNA binding, ligand, EMSA; saturating ligand): 1.3
COc1ccc(Nc2nn3c(-c4ccccc4)ccnc3c2C(=O)Nc2ccccc2)cc1  decrease in band quantity (α-glucosidase; SDS-PAGE, measured: 1 kDa band; 1 mg/mL): 40.5%
COc1ccc(N2C(=O)N(c3c(C)cccc3Cl)Cc3cnc(Nc4ccc(C5CCN(C)CC5)cc4OC)nc32)nc1  inhibition (DCLK1 (Homo sapiens, UniProt O15075); kinase activity, inhibitor; 0.5 µM, DCAMKL1): 1%
Nc1ncc(-c2nc(N3CCOCC3)nc(N3CCOCC3)n2)c(C(F)F)n1  remaining binding (MAP3K1 (Homo sapiens, UniProt Q13233); KINOMEscan; 10 µM): 77%
CC(C)C[C@@H]1NC(=O)[C@H](C(C)C)NC(=O)CNC(=O)[C@H](CC(N)=O)NC(=O)[C@@H]2CCCN2C(=O)[C@H](Cc2ccc(O)cc2)NC(=O)[C@H](CCCNC(=N)N)NC(=O)[C@H](Cc2ccccc2)NC(=O)[C@@H](NC(=O)[C@H](CCCCN)NC(=O)[C@@H]2CCCN2C(=O)[C@H](CO)NC(=O)[C@H](C)NC(=O)[C@@H](N)Cc2ccc(O)cc2)CSSC[C@@H](C(=O)N[C@H](C(N)=O)[C@@H](C)O)NC(=O)[C@H](C)NC1=O  -TΔS (Alpha-2-HS-glycoprotein, asialo (AHSG, Bos taurus, UniProt P12763); binding, isothermal titration calorimetry; pH 7.0, 25 °C, added: asialofetuin): -1.64 kcal/mol
Nc1ncnc2c1ncn2[C@@H]1O[C@H](COP(=O)(O)O)[C@@H](OP(=O)(O)O)[C@H]1O  ligand concentration at rate minimum (Thermonuclease (nuc, Staphylococcus aureus, UniProt P00644); folding kinetics; pH 7.0, 22 °C, added: 2.7 M urea): ~20 µM
O=C(c1ccc(Cl)cc1)N1CCN2C(=O)N(OC(=O)N3CCOc4ccccc43)C(=O)C2C1 (stereo not drawn)  peptide ratio (OVCA2 (Homo sapiens, UniProt Q8WZ82); MS-based ABPP; SW-620 conditioned medium; 10 µM, 1 h, 37 °C; reference: compound over DMSO, lower = more inhibition): 0.9 and 1.04 and 0.98 and 0.86
C[C@@H](O)[C@@H](CO)NC(=O)[C@@H](CCCNC(=N)N)NC(=O)[C@@H]1CCCN1C(=O)[C@@H]1CSSC[C@H](NC(=O)[C@H](Cc2ccccc2)NC(=O)CN2CCN(CC(=O)O)CCN(CC(=O)O)CCN(CC(=O)O)CC2)C(=O)N[C@@H](Cc2ccc(O)cc2)C(=O)N[C@@H](Cc2ccccc2)C(=O)N[C@@H](CCC(N)=O)C(=O)N[C@@H](CC(N)=O)C(=O)N1 [gallium-68 labelled]  tissue uptake (Wistar rat, lungs; intravenous, 8 MBq, 60 min, group mean): 0.6 %ID/g
CCCC[C@H]1CN(c2cccc(OC(F)(F)F)c2)C(=O)CN1Cc1cncn1Cc1ccc(C#N)c(F)c1  Ki (Protein farnesyltransferase (Cryptococcus neoformans, UniProt J9VSJ6+T2BPA1); uncompetitive inhibitor; added: 10 mM phosphate): 4 nM
Cc1ccc([C@H]2C[C@@H]2COc2cc(NCc3nnc(C)s3)nc(C)n2)nc1  selectivity ratio (PDE5A (Homo sapiens, UniProt O76074); enzyme activity, inhibitor, IMAP fluorescence polarization; isoform PDE5A1; reference: Ki target over Ki PDE10A2): 1.61e+06 fold
N#C[C@H](O[C@@H]1O[C@H](CO)[C@@H](O)[C@H](O)[C@H]1O)c1ccccc1  Km (BGLU7 (Oryza sativa, UniProt Q75I93); glucose release, substrate, HPLC; pH 6.0, 30 °C): 4.87 ± 1.45 mM
CN1CC[C@@H](c2c(O)cc(O)c3c(=O)cc(-c4ccc(C(F)(F)F)cc4Cl)oc23)[C@@H]1CO  patients with adverse event (measured: Anemia; relapsed B-cell malignancies; oral, 100 mg, grade 3-4, intermittent dosing): 0%
O=C(Nc1cnccc1Cl)N1CCN(Cc2ccc3c(c2)OC(F)(F)O3)CC1  inhibition of binding (GRM5 (Homo sapiens, UniProt P41594); radioligand binding; 10 µM, added: [3H]quisqualic acid): 6%
CC(C)(C)C(=O)CSc1ncc2c(n1)-c1cccnc1CC2  active site volume (Dual specificity protein phosphatase 10, catalytic domain (Homo sapiens, UniProt Q9Y6W6); X-ray co-crystal structure; concentration not given): 53.6 Å³
O=C[C@H](O)COP(=O)(O)O  kcat (TPI1 (Saccharomyces cerevisiae, UniProt P00942, Y208F); substrate, GPDH/NADH-coupled; pH 5.7, 25 °C): ~21 s⁻¹
COc1cc(CCNC(c2ccccc2O)C2CC2)c(OC)cc1C#N.Cl (stereo not drawn)  activity (HTR2C (Homo sapiens, UniProt P28335); Gq dissociation, agonist, BRET; 10 µM; reference: 5-HT): ~28%
Clc1cc2c(cc1Cl)Oc1cc(Cl)c(Cl)cc1O2  EC20 (Uncharacterized protein (Takifugu rubripes, UniProt Q4JHL5); reporter gene, agonist, dual-luciferase; COS-7; 24 h): 90 ± 50 pM
O=C(O)c1ccc(CN2C(=O)CN(C(=O)c3ccco3)c3cc(-c4ccccc4)c(Oc4ccc(C(=O)O)cc4)cc32)cc1  sGC activity (GUCY1B1, with alpha-1 subunit (Homo sapiens, UniProt Q02153, H105A); activator, purified enzyme; concentration not given; reference: basal): 4.8 fold
CC[C@H](C)[C@H](NC(=O)[C@H](Cc1ccccc1)NC(=O)[C@H](CCC(=O)O)NC(=O)[C@H](CCCNC(=N)N)NC(=O)[C@H](C)NC(=O)[C@H](C)NC(=O)[C@H](CCC(N)=O)NC(=O)[C@H](CCC(=O)O)NC(=O)[C@H](CCC(=O)O)NC(=O)[C@H](CC(C)C)NC(=O)[C@H](Cc1ccc(O)cc1)NC(=O)[C@H](CO)NC(=O)[C@H](CO)NC(=O)[C@@H](NC(=O)[C@H](CC(=O)O)NC(=O)[C@H](CO)NC(=O)[C@@H](NC(=O)[C@H](Cc1ccccc1)NC(=O)[C@@H](NC(=O)CNC(=O)[C@H](CCC(=O)O)NC(=O)[C@H](C)NC(=O)CCc1c[nH]cn1)[C@@H](C)O)[C@@H](C)O)C(C)C)C(=O)N[C@@H](C)C(=O)N[C@@H](Cc1c[nH]c2ccccc12)C(=O)N[C@@H](CC(C)C)C(=O)N[C@H](C(=O)N[C@@H](CCCNC(=N)N)C(=O)NCC(=O)N[C@@H](CCCNC(=N)N)C(=O)N[C@@H](CCCCNC(=O)COCCOCCNC(=O)COCCOCCNC(=O)CC[C@H](NC(=O)CCCCCCCCCCCCCCCCC(=O)O)C(=O)O)C(=O)NCC(=O)NCC(=O)N[C@@H](CO)C(=O)N[C@@H](CCCCNc1c(NCCCCCN(O)C(=O)CCC(=O)NCCCCCN(O)C(=O)CCC(=O)NCCCCCN(O)C(C)=O)c(=O)c1=O)C(=O)O)C(C)C [zirconium-89 labelled]  tissue uptake (rat, intestine; sc, 3 nmol/kg, 4 h, ex vivo): 0.13 %ID/g
CN1CCN(c2cc(-c3ccncc3)c(-c3ccc4ccccc4c3)nn2)CC1  activation (OXGR1 (Homo sapiens, UniProt Q96P68); agonist, FLIPR; 12.5 µM): 0.4%
CC(C)(C)C(=O)C1C(=O)c2ccccc2C1=O  activity (NR1H3 (Homo sapiens, UniProt Q13133); cells; concentration not given): inactive
CC12CCC(CC1)C(C)(C)O2  TΔS (1,8-cineole 2-endo-monooxygenase (cinA, Citrobacter braakii, UniProt Q8VQF6); ITC; 25 °C, wild-type protein): 13.7 ± 0.43 kcal/mol
Cc1nn(C)cc1-c1nc2c(N3CCN(Cc4ccc(Cl)cc4)CC3)c(Cl)cnc2[nH]1  remaining binding (MAP2K4 (Homo sapiens, UniProt P45985); KINOMEscan; 1 µM; reference: DMSO control): 100%
CC1=C(C(=O)O)N2C(=O)[C@@H](NC(=O)[C@H](N)c3ccccc3)[C@H]2SC1  kinact/KI (pbp2a; inhibitor): 81 ± 12 M⁻¹ s⁻¹
COc1cc(N)c(Cl)cc1C(=O)NC1CN2CCC1CC2 (stereo not drawn)  log2 fold change (G-protein coupled receptor 161 (GPR161, Homo sapiens, UniProt Q8N6U8); β-arrestin recruitment, TANGO luminescence, measured: GPR161; concentration not given; reference: basal luminescence): 0.03
COc1cc(O)cc(/C=C/c2ccc(O)cc2)c1  ΔG of binding (O-methyltransferase (Sorghum bicolor, UniProt A0A1B6PFV1); concentration not given, added: SAH+): -9.4 kcal/mol
C[C@H]1CN(c2n[nH]c3nc(N[C@H]4CC[C@H](NS(=O)(=O)CCC(F)(F)F)CC4)ncc23)CCO1  relative abundance (CBR1 (Homo sapiens, UniProt P16152); inhibitor, Kinobeads competition profiling; 0.16 µM; reference: vehicle): 1.03
C=CC(=O)N[C@H]1C=C(C)c2c(-c3cnc4ccccc4c3)c3c(N)ncnc3n2C1  binding rate constant (EGFR (Homo sapiens, UniProt P00533); irreversible inhibitor, PD turnover model, measured: EGFR phosphorylation; mouse, NCI-H2073 xenograft): 2.85 h⁻¹
[2H]c1c([2H])c([C@]2([2H])CCCN2C(=O)C(C)(C)Oc2ccc3cn[nH]c3c2)c([2H])c([2H])c1C([2H])([2H])[2H]  remaining binding (MAP3K11 (Homo sapiens, UniProt Q16584); KINOMEscan; 1 µM; reference: DMSO control): 83%
CN(C(=O)n1cnc(-c2ccc[n+]([O-])c2)c1)C1CCCCC1  ED50 (Faah (Mus musculus, UniProt O08914); enzyme activity, inhibitor, ex vivo; rat, liver; oral, 8 h): 6.2 mg/kg
O=c1c2ccccc2oc2cc(OCCCCc3ccccc3)ccc12  reaction velocity (ache (Electrophorus electricus, UniProt O42275); enzyme activity; 0.36 µM, added: substrate 1.73 mM; higher = faster reaction): 0.0016 a.u.
CO[C@H]1C[C@@H]2CC[C@@H](C)[C@@](O)(O2)C(=O)C(=O)N2CCCC[C@H]2C(=O)O[C@H]([C@H](C)C[C@@H]2CC[C@@H](OC(=O)NCCOCCOCCOCCOCCOCCOCCOCCOCCC(=O)N3CCc4cc(Cn5nc(-c6ccc7oc(N)nc7c6)c6c(N)ncnc65)ccc4C3)[C@H](OC)C2)C[C@@H](O)[C@H](C)/C=C(\C)[C@@H](O)[C@@H](OC)C(=O)[C@H](C)C[C@H](C)/C=C/C=C/C=C/1C  dose-reducing adverse events (phase 1 dose escalation, measured: gastric haemorrhage; advanced solid tumour patients; intravenous, 6 mg weekly, any grade): 0%
CCCCC/C=C\C/C=C\C/C=C\C/C=C\CCCC(=O)NCCO  Hill coefficient (Trpv1 (Mus musculus, UniProt Q704Y3, Y512F); ion current, agonist, whole-cell patch clamp; Y512F): 3.55 ± 0.67
COc1cc(Nc2ncc(F)c(Nc3ccc4c(n3)NC(=O)C(C)(C)O4)n2)cc(OC)c1OC  inhibition (EPHB6 (Homo sapiens, UniProt O15197); KINOMEscan; 10 µM): 93%
O=C1C(P(=O)(O)O)CC(O)N1O (stereo not drawn)  selectivity ratio (enolase; NADH-linked; preincubated before substrate; reference: IC80 ENO1 over IC80 ENO2): 10 fold
O=C(O)CCC(=O)C(=O)O  KI over Km (HIF1AN (Homo sapiens, UniProt Q9NWT6, Y93A); cosubstrate; tunnel mutant Y93A): ~20 fold

For quick reference, copied from above:
COC(=O)[C@@]1(O)C[C@H]2O[C@]1(C)n1c3ccccc3c3c4c(c5c6ccccc6n2c5c31)C(=O)NC4  kinase activity (MAPK3 (Homo sapiens, UniProt P27361); ADP-Glo; 10.5 nM, added: MBP substrate): 56.5% and 70.5% and 79.6%
CCCC[C@H]1CN(c2cccc(OC(F)(F)F)c2)C(=O)CN1Cc1cncn1Cc1ccc(C#N)c(F)c1  Ki (Protein farnesyltransferase (Cryptococcus neoformans, UniProt J9VSJ6+T2BPA1); uncompetitive inhibitor; added: 10 mM phosphate): 4 nM
CC(C)(C)C(=O)CSc1ncc2c(n1)-c1cccnc1CC2  active site volume (Dual specificity protein phosphatase 10, catalytic domain (Homo sapiens, UniProt Q9Y6W6); X-ray co-crystal structure; concentration not given): 53.6 Å³
